Assay results gathered from unrelated publications.
Numbered parts are unrelated; each lists some results of a single study.

Block 1
Target: Centromere-binding protein 1, full length, His-tagged (CBF1, Saccharomyces cerevisiae, UniProt P17106, residues 1-351)
Sequence of UniProt P17106 (whole entry, looked up): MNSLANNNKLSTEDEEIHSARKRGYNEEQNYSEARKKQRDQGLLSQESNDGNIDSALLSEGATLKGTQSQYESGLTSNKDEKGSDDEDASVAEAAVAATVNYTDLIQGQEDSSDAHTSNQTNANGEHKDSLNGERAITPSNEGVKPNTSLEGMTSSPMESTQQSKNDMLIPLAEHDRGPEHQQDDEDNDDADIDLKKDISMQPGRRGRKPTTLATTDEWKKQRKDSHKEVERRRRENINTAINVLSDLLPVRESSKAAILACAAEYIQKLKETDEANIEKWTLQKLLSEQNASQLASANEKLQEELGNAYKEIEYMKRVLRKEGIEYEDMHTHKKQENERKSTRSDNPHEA
Method: competition protein-binding microarray
Molecule type: double-stranded DNA, one strand shown
Sample: in vitro
Concentration: 2 µM
Notes: whole 60-bp probe, lowest competitor level
Together with: Pho4 competitor, 0.05 µM
Direction: higher = stronger binding
Shared flanks, not repeated: … GTCTTGATTCGCTTGACGCTGCTG
Strand	fluorescence intensity
AACGGAAATGCATCTCGCGTGGCAAGGCGGCTCGCT	57.5 a.u.
CTCTCCATTCATTCACACGTCATACATGGCTAACTG	77.5 a.u.
CGGGGTTAAGTTTGTAATGTGGGTGGCTTGCAGCAG	74.9 a.u.
AAATTACTAAGTTTTCACGTGCATTACCCCGTATGA	1400 a.u.
GTCTTGTCTCATTGTCACTGGACTTTCCCCACTTCA	83.8 a.u.
CTCCTCTGCAGAAAGCACGAGGTTGCCCTTCTACAG	126 a.u.
CTTTCCCGATCTTGTCACACAACTTTAGCACATTTG	91 a.u.
TACAAGGTTATCCTGATCGTGCGGACAAGAAGATCA	56.5 a.u.
ATAGTACAAATCCGTCACATGATGATATTTGATTTT	1270 a.u.
CATACCCAACCTTTTCACGTGCCCTAAGATATTTGT	1210 a.u.

Block 2
Target: Histone acetyltransferase KAT6A, winged helix 2, GST fusion (KAT6A, Homo sapiens, UniProt Q92794, residues 85-181)
Method: protein binding microarray
Molecule type: double-stranded DNA, one strand shown
Sample: in vitro
Concentration: not given
Notes: 8-mer, flanks averaged, mean of 2 arrays, mostly near background
Baseline: not given
Direction: higher = stronger binding
Target sequence (chain): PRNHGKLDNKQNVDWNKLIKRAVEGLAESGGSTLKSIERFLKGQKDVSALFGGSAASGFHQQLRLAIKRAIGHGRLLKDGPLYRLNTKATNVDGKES
Strand	E-score
CGGTAGAC	-0.0363
AACTTGCG	0.185
ACAAATCC	-0.0296
CGAACGCA	0.228
ACACAGAG	-0.00819
GATCTGCC	0.0741
ATAGCATC	0.108
CAGCGGGA	0.156

Block 3
Target: Sal-like protein 4, full length isoform A (SALL4, Homo sapiens, UniProt Q9UJQ4, residues 1-1053)
Sequence of UniProt Q9UJQ4 (whole entry, looked up): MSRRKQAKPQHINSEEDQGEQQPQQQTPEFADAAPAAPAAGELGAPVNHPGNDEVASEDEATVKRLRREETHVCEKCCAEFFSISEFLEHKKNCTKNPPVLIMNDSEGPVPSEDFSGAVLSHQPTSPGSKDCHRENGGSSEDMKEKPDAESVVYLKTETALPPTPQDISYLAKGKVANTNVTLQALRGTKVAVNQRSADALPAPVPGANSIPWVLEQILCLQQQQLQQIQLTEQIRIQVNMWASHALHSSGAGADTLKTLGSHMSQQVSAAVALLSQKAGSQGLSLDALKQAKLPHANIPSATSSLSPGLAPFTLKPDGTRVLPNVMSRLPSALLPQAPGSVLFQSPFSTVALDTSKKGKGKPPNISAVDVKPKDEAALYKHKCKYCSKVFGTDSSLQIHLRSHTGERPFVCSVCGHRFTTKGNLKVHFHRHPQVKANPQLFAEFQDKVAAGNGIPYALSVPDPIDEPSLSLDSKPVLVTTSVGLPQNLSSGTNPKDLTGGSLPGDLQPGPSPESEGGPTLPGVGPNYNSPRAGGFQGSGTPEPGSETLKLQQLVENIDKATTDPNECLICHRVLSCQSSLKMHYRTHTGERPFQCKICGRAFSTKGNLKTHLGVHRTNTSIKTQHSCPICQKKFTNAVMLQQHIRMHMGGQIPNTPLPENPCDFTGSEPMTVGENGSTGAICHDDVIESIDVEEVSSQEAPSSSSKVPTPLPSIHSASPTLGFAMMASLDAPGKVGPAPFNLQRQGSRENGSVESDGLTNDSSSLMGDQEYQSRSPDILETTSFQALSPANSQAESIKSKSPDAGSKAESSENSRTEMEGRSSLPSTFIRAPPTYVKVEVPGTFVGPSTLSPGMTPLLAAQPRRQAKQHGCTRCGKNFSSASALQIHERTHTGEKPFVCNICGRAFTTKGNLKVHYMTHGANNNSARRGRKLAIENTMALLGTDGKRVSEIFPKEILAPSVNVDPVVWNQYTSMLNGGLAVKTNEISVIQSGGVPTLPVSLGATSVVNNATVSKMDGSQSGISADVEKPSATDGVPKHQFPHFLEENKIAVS
Method: universal PBM
Molecule type: double-stranded DNA, one strand shown
Sample: in vitro
Concentration: 600 nM
Notes: 8-mer, flanks averaged, mean of replicates
Direction: higher = stronger binding
Strand	E-score
GACGGGAA	-0.0551
CGTGAGTC	-0.202
TGTCATAA	0.365
AATTTTTG	0.396
AGTACAGG	-0.0119
TACCGCTA	0.0131

Mixed results
Molecule	target	test	test system	setting	how to read	endpoint	result
PhoQ, residues 284 288 289 292 302 303 TYGVAM	PhoP, residues 12 14 15 18 19 YHFSH (Escherichia coli, UniProt P23836)	Sort-seq, item: YFP reporter	E. coli	PhoQ-PhoP variant library, together with: 10 µM Mg2+	baseline: high Mg2+ state, higher = stronger signaling	fold induction	11.9
